Assay results from different studies.
Compare with care: the assays were run in different laboratories.
Target: Mitogen-activated protein kinase kinase kinase 3 (MAP3K3, Homo sapiens, UniProt Q99759)

Structure (SMILES) | test | system | setting | scale | quantity | result
O=C(Cc1ccc(OCc2ccccc2)cc1)NC1(C(=O)O)CCN(C(=O)c2ccc(-c3cccc(Cl)c3)cc2)CC1 | enzyme activity, inhibitor |  | 10 µM |  | activity vs control | 97%
COc1cc(Nc2nc(C)cc(-c3cnn4nc(OC)ccc34)n2)cc(C(F)(F)F)c1 | inhibitor |  | 1 µM | reference: control | remaining activity | 72%
Cc1cc(NC(=O)[C@H](O)c2cc(F)cc(F)c2)ccc1-c1cnc(N)c(C(=O)NC(C)C)c1 | binding, competition with immobilised ligand |  | 0.1 µM |  | remaining binding | 98%
CN1CC[C@@H](COc2cnc(C#N)cc2-c2ccn3nc(NC(=O)C4CC4)cc3c2)C1 | enzyme activity, inhibitor |  | 1 µM |  | inhibition | 2%
CCn1cc(C(=O)O)c(=O)c2c(N)c(F)c(NC3CCCCC3)cc21 | kinase activity |  | 0.1 µM, added: ATP at Km |  | inhibition | 5.7%
NC(=O)[C@@H](O)C[C@H]1CCc2sc3ncnc(O[C@H]4CC[C@H](N5CCOCC5)CC4)c3c21 | enzyme activity, inhibitor |  | 10 µM |  | inhibition | 0%
C=CC(=O)Nc1cc(-c2nn(C3CCN(CCNC(=O)[C@H](C)CCC45CC6CC(CC(C6)C4)C5)CC3)c3ncnc(N)c23)ccc1Oc1ccccc1 | inhibitor, KiNativ profiling | biochemical | 2 µM |  | inhibition | 15.4%
CNC1C[S+]2CC[S+]3CC[S+](C1)[Ru-4]321([N]=C=S)[n]2c3ccc(OC)cc3c3c4c(c5cc(F)c[n+]1c5c32)C(=O)NC4=O (stereo not shown) | KinomeScan |  | 0.1 µM | reference: untreated | remaining binding | 96%
C=CC(=O)N1CCCC(n2c(=O)c3ncccc3n(Cc3ccc(Oc4ccccc4)cc3)c2=O)C1 (stereo not shown) | cell-free assay, competition with immobilised ligand |  | 1 µM |  | remaining binding | 91%
C=CC(=O)N1Cc2nc(-c3cc(-c4cc(Cl)cnc4Cl)c(F)cc3F)n(-c3ccncn3)c2C1 | cell-free assay, inhibitor |  | 1 µM |  | inhibition | 5%
CN1CCN(Cc2ccc(-c3ccc(CO[C@H]4CCC[C@@H]4NC(=O)c4cc(-c5cnn(C)c5)cnc4N)cc3)cc2)CC1 | enzyme activity, inhibitor |  | 0.1 µM |  | inhibition | -10%
CCN1CCN(Cc2ccc(C(=O)Nc3ccc(C)c(NCc4cnc5[nH]ccc5c4OC)c3)cc2C(F)(F)F)CC1 | binding, competition with immobilised ligand |  | 1 µM |  | remaining binding | 4.8%
Cn1cc(-c2cnc3ccc(NC(=O)Nc4ccc5sccc5c4)cc3n2)cn1 | kinase binding, KiNativ profiling, measured: Lys1 peptide | PANC-1 lysate | 2.5 µM |  | inhibition | 3.6%

Repeated from above:
Structure (SMILES) | test | system | setting | scale | quantity | result
O=C(Cc1ccc(OCc2ccccc2)cc1)NC1(C(=O)O)CCN(C(=O)c2ccc(-c3cccc(Cl)c3)cc2)CC1 | enzyme activity, inhibitor |  | 10 µM |  | activity vs control | 97%
